Measured values gathered from unrelated publications.
A part holds a random share of what one study measured. Positions count from the first letter of the parent shown.

Sample 1
Target: CCNE1, cyclin fold, Cln2 fusion (human)
Technique: yeast growth competition, sequencing
Matrix: yeast
Setting: strong parent motif
Relative to: not given
Direction: higher = stronger binding
Parent: E2F1 docking peptide (human); PPVKRRLDFETDH; partner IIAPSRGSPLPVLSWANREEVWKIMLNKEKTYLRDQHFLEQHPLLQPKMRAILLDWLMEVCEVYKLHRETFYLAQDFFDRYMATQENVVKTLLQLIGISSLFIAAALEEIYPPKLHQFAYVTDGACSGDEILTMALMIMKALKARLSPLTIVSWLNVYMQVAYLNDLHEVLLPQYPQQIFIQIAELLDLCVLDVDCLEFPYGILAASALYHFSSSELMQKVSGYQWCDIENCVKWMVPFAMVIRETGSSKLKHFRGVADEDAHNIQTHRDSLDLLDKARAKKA
| Change | normalised enrichment score |
| --- | --- |
| T11M | 6.44 |
| F9K | 0.114 |
| R5Y | 0.323 |
| L7E | 0.132 |
| D8P | 1.76 |
| D8C | 6.2 |
| P2L | 6.1 |
| L7A | 0.599 |
| R6M | 5.02 |
| K4Y | 2.29 |
| K4Q | 4.43 |
| L7P | -0.0551 |
| P2R | 6.85 |
| T11L | 6.14 |
| K4N | 5.07 |
| R5H | 0.125 |
| T11V | 6.01 |
| E10P | 6.2 |
| F9H | -0.152 |
| V3F | 4.5 |
| E10R | 6.13 |
| V3G | 3.07 |
| V3L | 2.15 |
| E10M | 6.12 |
| R5L | 0.553 |

Sample 2
Target: Fragile X messenger ribonucleoprotein 1, C-terminal low-complexity region (Fmr1, Mus musculus, UniProt P35922)
Technique: RNA Bind-n-Seq
Form: RNA
Matrix: in vitro
Tested at: 200 nM
Setting: whole 134-nt RNA, ends assumed
Added: 150 mM KCl
Relative to: input library
Direction: higher = stronger binding
| Sequence | log2 enrichment |
| --- | --- |
| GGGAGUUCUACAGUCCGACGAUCUCCUGUGCUACACAUCGUAUGUACCGAAUCAAAUUUUUUUAAACCCCCAAAUUUUUAAAAAAGUAUUAUGUUACGCCGUUCGGAUCUGCAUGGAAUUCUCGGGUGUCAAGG | 0.523 |
| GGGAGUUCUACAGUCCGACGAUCCACAGACAACACGCACCCACACAGACACAGAGGGAAGGGGUUGGGAUGGGGACAGGGUGCACAGCAGGGCGGGGUAGGACCAAAGCCCCUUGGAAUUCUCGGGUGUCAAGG | 1.17 |
| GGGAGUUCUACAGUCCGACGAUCUGGGAGGUGGAUUUUGUUUAUUUUUUUAGCUCAUUUCCAGGGGUGGGAAUUUUUUUUUAAUAUGUGUCAUGAGUAAAGUUGUUUUUGAAAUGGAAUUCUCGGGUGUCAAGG | 0.43 |
| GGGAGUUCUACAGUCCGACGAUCUAACUUUAGAGGAGGAUCUGAUGGAUAUGGCAGUGGACGUGGAUUUGGGGAUGGCUAUAAUGGGUAUGGAGGAGGACCUGGAGCUGGCAAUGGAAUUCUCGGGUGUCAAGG | 0.119 |
| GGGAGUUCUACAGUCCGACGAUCAGUCCUGUGCUACACAUCGUAUGUACCGAAUCGGGAAAAAGGGUUUUUGGGUUUGGGAAAGUAUUAUGUUACGCCGUUCGGAUCUGCACUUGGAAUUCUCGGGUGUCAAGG | -0.0579 |
| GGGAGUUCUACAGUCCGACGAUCCUCAAGUCCUGUGCUACACAUCGUAUGUACCGAAUCGGUUUUUUUGGAGGAGGAAAGUAUUAUGUUACGCCGUUCGGAUCUGCACUUCCAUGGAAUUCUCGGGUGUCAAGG | -0.144 |
| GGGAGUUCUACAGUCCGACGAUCCACAGACAACACGCACCCACACAUACACAGAGGGAAGGGGUUGGGAUGGGGACAGGGUGCACAGCAGGGCGGGGUAGGACCCCAGCCCCUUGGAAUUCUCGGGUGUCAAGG | 1.31 |
| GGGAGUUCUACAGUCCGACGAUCUCAAGUCCUGUGCUACACAUCGUAUGUACCGAAUCGGCCCGGCCCGGGCCCGGGAAAGUAUUAUGUUACGCCGUUCGGAUCUGCACUUCCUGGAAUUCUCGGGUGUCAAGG | -0.462 |
| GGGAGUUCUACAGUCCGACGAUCCCUCAAGUCCUGUGCUACACAUCGUAUGUACCGAAUCGGGCCGGGCCGGCCGGAAAGUAUUAUGUUACGCCGUUCGGAUCUGCACUUCCAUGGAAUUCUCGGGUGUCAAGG | -0.0683 |

Sample 3
Target: ABI1, truncated, D143A, DHFR fusion (Arabidopsis thaliana)
Technique: DHFR PCA, deep sequencing
Matrix: yeast
Setting: methotrexate growth selection, single substitutions
Added: (+)-ABA 0.032 µM
Relative to: wild-type fitted maximum
Direction: higher = stronger binding
Parent: PYL1, truncated, DHFR fusion (Arabidopsis thaliana); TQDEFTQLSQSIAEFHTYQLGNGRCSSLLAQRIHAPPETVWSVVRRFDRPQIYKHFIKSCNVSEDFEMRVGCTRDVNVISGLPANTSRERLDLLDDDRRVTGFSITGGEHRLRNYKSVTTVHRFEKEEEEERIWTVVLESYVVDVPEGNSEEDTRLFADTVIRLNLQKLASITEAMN; partner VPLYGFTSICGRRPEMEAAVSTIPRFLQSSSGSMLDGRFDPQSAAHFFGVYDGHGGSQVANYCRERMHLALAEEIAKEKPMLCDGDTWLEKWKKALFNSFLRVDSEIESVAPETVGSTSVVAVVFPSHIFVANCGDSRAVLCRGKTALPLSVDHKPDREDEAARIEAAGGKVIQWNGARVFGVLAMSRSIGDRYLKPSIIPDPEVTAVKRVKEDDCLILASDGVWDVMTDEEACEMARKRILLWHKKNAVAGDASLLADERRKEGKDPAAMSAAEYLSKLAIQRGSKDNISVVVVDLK
| Change | relative binding score [%] |
| --- | --- |
| N114A | -2.1 |
| E89D | 8.55 |
| I172G | -3.48 |
| I105N | -0.346 |
| R113G | 5.97 |
| Q31P | -2.44 |
| Y115I | 1.48 |
| N85K | 41.7 |
| V43G | -4.46 |
| I12T | -4.1 |
| I162R | 8.21 |
| D96I | 0.432 |
| V145P | -9.16 |
| A35K | -6.15 |
| L138C | -1.36 |
| R46I | -18.3 |
| E14G | 1.72 |
| E152V | 3.99 |
| C60L | 8.48 |
| S42W | -4.35 |
| V137F | 8.96 |
| K126I | 22.5 |
| F66S | 5.76 |
| S171A | 39.1 |
| R155D | -4.23 |

Sample 4
Target: Histone acetyltransferase KAT6A, winged helix 2, GST fusion (KAT6A, Homo sapiens, UniProt Q92794, residues 85-181)
Technique: protein binding microarray
Form: double-stranded DNA, one strand shown
Matrix: in vitro
Tested at: not given
Setting: 8-mer, flanks averaged, mean of 2 arrays, mostly near background
Relative to: not given
Direction: higher = stronger binding
Target sequence (chain): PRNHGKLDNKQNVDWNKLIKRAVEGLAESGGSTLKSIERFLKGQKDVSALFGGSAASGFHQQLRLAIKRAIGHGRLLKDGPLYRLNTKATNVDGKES
| Sequence | E-score |
| --- | --- |
| ACATACCG | -0.139 |
| GGACGGTA | -0.129 |
| ACCGTGTG | 0.0118 |
| TGAACCCA | 0.0974 |
| CCGCTGTA | 0.144 |
| AATGATGT | -0.0723 |
| CCCGTCTC | 0.0317 |
| ACACCTGC | 0.125 |
| GGCTTGAC | -0.00426 |
| AGCTGATC | 0.133 |
| AGTCGTAA | -0.0261 |
| AAAGACCC | 0.188 |
| GCGCCCCA | 0.21 |
| ATCCACGG | 0.0942 |
| CCAGGGCC | -0.0458 |
| CTACCTGC | -0.012 |
| ACGTTACC | -0.166 |
| CCGCTCCC | 0.0381 |
| ACGGTCAA | -0.0769 |
| GATTCAGC | 0.173 |

Sample 5
Target: RNA binding protein fox-1 homolog 2, RRM domain, GST-SBP tag (RBFOX2, Homo sapiens, UniProt O43251-10, residues 100-194)
Technique: RNA Bind-n-Seq
Form: RNA
Matrix: in vitro
Tested at: 365 nM
Setting: natural RNA segment, single round, ends assumed
Relative to: no-protein control
Direction: higher = stronger binding
Construct (chain): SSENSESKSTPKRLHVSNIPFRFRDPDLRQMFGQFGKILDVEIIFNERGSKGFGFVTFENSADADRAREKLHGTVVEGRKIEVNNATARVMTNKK
| Sequence | RBNS enrichment (R) |
| --- | --- |
| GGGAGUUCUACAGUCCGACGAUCCCUUGGCAUGCCUUGCUCACAAUACUCAUUAUGCUGUGUGGGAUUUCCUGAUUACUAGAAGCUGACCUCUGCUAUCCUGGGUAAGAACGCCCUGAGUACGGGUACCAUGCUGGAAUUCUCGGGUGCCAA | 0.805 |
| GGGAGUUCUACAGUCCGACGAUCGCUUUGAUCCAUAUUUCUCACAGUGCUGUAUUAAAAAAUAGAACCUAAGGCAGAUAGCCACCUUUACAUUGUGAGUGUGUUUACCUUGUCUAAUGACGGAUAAUUCCUUAUGGAAUUCUCGGGUGCCAA | 0.446 |
| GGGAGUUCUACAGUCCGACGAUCACGUUAGCUGUCCCAGGCCACAAGCCAUACCCAACCUUGACCUUCCUGGGUCACAAUGAUCAGUUGGUUUUUCCAUUAGGGAGGGAAGGUCUGGGCCUGCUUAGCAAGAAUGGAAUUCUCGGGUGCCAA | 0.277 |
| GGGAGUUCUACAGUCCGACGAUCACAGAUUAAAUUUAAUUAAUUAAUUCAAAACAUGUUAAACGUUACUUUCAUGUACUAUGGAAAAGUACAAGUAGGUUUACAUUACUGAUUUCCAGAAGUAAGUAGUUUCCUGGAAUUCUCGGGUGCCAA | 0.632 |
| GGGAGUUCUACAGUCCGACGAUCGCAAGUACACACUUCCACGGAAUCAUACAUUGGUUCAUCUUCUGAGAGCGCACAAUAGCUACUGAACAAGCUGUGACUGAACUGUACAUAGACCUGAGAGGAGCAGAGAAUGGAAUUCUCGGGUGCCAA | 0.406 |
| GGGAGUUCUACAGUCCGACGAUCGGCAUCUUUGGAUUCAGGAGCUAACCAGGCUCUUCCUCGGGGGCGGGGGAGAUUCUGACUCUUAAUCUGUAUUGUGAGAAAAUCCCAGCAAGUUCCAUGAUAUUAAAUCCUGGAAUUCUCGGGUGCCAA | 0.601 |
| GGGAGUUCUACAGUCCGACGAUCGGGUUGCCAGGGAUAAAGAGCUUCCUCACUGGAUGGGACCCGCCUUUCUGUGUUGUGUUCUGCCCUGUGCUCUUCUCUCUACGUUAACGUUUCCUGUAGUAUGUUUCUUCUGGAAUUCUCGGGUGCCAA | 0.385 |
| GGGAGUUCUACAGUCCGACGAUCUAAAGGGGACUCUCACUAGGCUAGAGGCCGCCUUCUGCUCCUCUCUUGCACUGACUCUGUGGAGGGGGUCUUCAUUCACUAAACUGACCCAGGAUGGAACACGAAACCACUGGAAUUCUCGGGUGCCAA | 0.447 |

For quick reference, copied from above (sample 5):
| Sequence | RBNS enrichment (R) |
| --- | --- |
| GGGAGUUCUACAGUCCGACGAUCCCUUGGCAUGCCUUGCUCACAAUACUCAUUAUGCUGUGUGGGAUUUCCUGAUUACUAGAAGCUGACCUCUGCUAUCCUGGGUAAGAACGCCCUGAGUACGGGUACCAUGCUGGAAUUCUCGGGUGCCAA | 0.805 |
| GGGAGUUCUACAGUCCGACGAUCGCUUUGAUCCAUAUUUCUCACAGUGCUGUAUUAAAAAAUAGAACCUAAGGCAGAUAGCCACCUUUACAUUGUGAGUGUGUUUACCUUGUCUAAUGACGGAUAAUUCCUUAUGGAAUUCUCGGGUGCCAA | 0.446 |
| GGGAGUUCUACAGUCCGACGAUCACGUUAGCUGUCCCAGGCCACAAGCCAUACCCAACCUUGACCUUCCUGGGUCACAAUGAUCAGUUGGUUUUUCCAUUAGGGAGGGAAGGUCUGGGCCUGCUUAGCAAGAAUGGAAUUCUCGGGUGCCAA | 0.277 |
| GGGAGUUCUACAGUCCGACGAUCACAGAUUAAAUUUAAUUAAUUAAUUCAAAACAUGUUAAACGUUACUUUCAUGUACUAUGGAAAAGUACAAGUAGGUUUACAUUACUGAUUUCCAGAAGUAAGUAGUUUCCUGGAAUUCUCGGGUGCCAA | 0.632 |
| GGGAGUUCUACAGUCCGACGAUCGCAAGUACACACUUCCACGGAAUCAUACAUUGGUUCAUCUUCUGAGAGCGCACAAUAGCUACUGAACAAGCUGUGACUGAACUGUACAUAGACCUGAGAGGAGCAGAGAAUGGAAUUCUCGGGUGCCAA | 0.406 |
| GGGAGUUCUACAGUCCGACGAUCGGCAUCUUUGGAUUCAGGAGCUAACCAGGCUCUUCCUCGGGGGCGGGGGAGAUUCUGACUCUUAAUCUGUAUUGUGAGAAAAUCCCAGCAAGUUCCAUGAUAUUAAAUCCUGGAAUUCUCGGGUGCCAA | 0.601 |
| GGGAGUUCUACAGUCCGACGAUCGGGUUGCCAGGGAUAAAGAGCUUCCUCACUGGAUGGGACCCGCCUUUCUGUGUUGUGUUCUGCCCUGUGCUCUUCUCUCUACGUUAACGUUUCCUGUAGUAUGUUUCUUCUGGAAUUCUCGGGUGCCAA | 0.385 |
| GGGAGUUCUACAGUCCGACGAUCUAAAGGGGACUCUCACUAGGCUAGAGGCCGCCUUCUGCUCCUCUCUUGCACUGACUCUGUGGAGGGGGUCUUCAUUCACUAAACUGACCCAGGAUGGAACACGAAACCACUGGAAUUCUCGGGUGCCAA | 0.447 |
